{"data": "Measurements gathered from unrelated publications", "note": "A part holds a random share of what one study measured."}
{"data": "Set 1", "target": "Histone acetyltransferase KAT6A, winged helix 1, GST fusion (KAT6A, Homo sapiens, UniProt Q92794, residues 1-85)", "technique": "protein binding microarray", "molecule type": "double-stranded DNA, one strand shown", "matrix": "in vitro", "concentration": "not given", "notes": "8-mer, flanks averaged, mean of 2 arrays, mostly near background", "relative to": "not given", "direction": "higher = stronger binding", "Construct (chain)": "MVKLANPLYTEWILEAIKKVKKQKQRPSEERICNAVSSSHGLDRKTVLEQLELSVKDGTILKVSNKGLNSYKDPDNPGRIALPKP"}
{"Strand": "CCGACTCA", "E-score": 0.0596}
{"Strand": "CCCAGGAA", "E-score": -0.239}
{"Strand": "ACCTAATG", "E-score": -0.103}
{"Strand": "CTGGACAA", "E-score": -0.208}
{"Strand": "GCTCAAGC", "E-score": 0.0806}
{"data": "Set 2", "target": "Sal-like protein 4, full length isoform A (SALL4, Homo sapiens, UniProt Q9UJQ4, residues 1-1053)", "technique": "universal PBM", "molecule type": "double-stranded DNA, one strand shown", "matrix": "in vitro", "concentration": "600 nM", "notes": "8-mer, flanks averaged, mean of replicates", "direction": "higher = stronger binding", "chain of UniProt Q9UJQ4 (whole entry, looked up)": "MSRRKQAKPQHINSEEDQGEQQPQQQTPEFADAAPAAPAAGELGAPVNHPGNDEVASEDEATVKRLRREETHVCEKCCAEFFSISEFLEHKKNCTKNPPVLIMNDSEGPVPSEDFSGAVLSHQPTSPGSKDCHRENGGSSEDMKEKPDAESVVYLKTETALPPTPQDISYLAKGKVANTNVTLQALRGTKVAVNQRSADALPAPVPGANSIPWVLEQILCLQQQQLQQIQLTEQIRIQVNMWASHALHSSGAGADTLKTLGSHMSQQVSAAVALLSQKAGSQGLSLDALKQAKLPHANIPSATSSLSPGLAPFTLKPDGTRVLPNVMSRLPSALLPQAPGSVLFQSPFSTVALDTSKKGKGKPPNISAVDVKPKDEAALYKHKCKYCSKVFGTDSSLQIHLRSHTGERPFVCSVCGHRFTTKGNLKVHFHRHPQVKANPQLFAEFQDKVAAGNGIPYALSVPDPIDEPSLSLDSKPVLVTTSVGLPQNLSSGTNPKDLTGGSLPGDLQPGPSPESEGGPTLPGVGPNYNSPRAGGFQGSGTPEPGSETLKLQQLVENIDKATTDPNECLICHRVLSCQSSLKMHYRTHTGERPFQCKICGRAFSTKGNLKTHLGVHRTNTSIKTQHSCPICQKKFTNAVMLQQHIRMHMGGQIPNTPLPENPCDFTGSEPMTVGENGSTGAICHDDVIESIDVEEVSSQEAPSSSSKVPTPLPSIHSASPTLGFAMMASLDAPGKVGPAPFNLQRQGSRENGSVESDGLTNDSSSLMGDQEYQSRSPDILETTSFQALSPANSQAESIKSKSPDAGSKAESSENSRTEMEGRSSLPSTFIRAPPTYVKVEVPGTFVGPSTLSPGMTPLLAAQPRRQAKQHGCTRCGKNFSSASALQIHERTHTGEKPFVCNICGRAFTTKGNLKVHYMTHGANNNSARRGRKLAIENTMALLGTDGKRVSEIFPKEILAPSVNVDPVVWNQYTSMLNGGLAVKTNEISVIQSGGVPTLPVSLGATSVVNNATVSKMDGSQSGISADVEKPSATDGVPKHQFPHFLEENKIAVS"}
{"Strand": "AAACTACA", "E-score": 0.125}
{"Strand": "CAGTGATG", "E-score": 0.131}
{"Strand": "ACTCTTCA", "E-score": 0.0923}
{"Strand": "AGTCGATA", "E-score": 0.235}
{"Strand": "CCGACAGC", "E-score": -0.32}
{"Strand": "GGACCTCA", "E-score": -0.199}
{"Strand": "ACGCTTAT", "E-score": 0.0724}
{"data": "Set 3", "target": "Prothrombin, mature alpha-thrombin (F2, Homo sapiens, UniProt P00734)", "technique": "aptamer microarray, sandwich", "molecule type": "DNA with 2'F-ANA", "matrix": "in vitro", "concentration": "200 nM", "notes": "whole 15-mer aptamer, many near background", "added": "Cy3 exosite-II aptamer, 400 nM", "direction": "higher = stronger binding", "strand": "GGTTGGTGTGGTTGG"}
{"Modification": "2'F-ANA at 1 2 5 6 7 8 11 12 13 14 15", "mean fluorescence intensity [a.u.]": 47.2}
{"Modification": "2'F-ANA at 2 3 8 10", "mean fluorescence intensity [a.u.]": 392}
{"Modification": "2'F-ANA at 1 3 4 7 9 10 11", "mean fluorescence intensity [a.u.]": 61.7}
{"Modification": "2'F-ANA at 1 2 5 8 15", "mean fluorescence intensity [a.u.]": 67.3}
{"Modification": "2'F-ANA at 2 3 4 7 8 9 11 12 13 14 15", "mean fluorescence intensity [a.u.]": 232}
{"data": "Mixed results"}
{"Molecule": "PhoQ, residues 284 288 289 292 302 303 GTAMQF", "target": "PhoP, residues 12 14 15 18 19 YHFSH (Escherichia coli, UniProt P23836)", "test": "Sort-seq, item: YFP reporter", "system": "E. coli", "setting": "PhoQ-PhoP variant library, added: 10 µM Mg2+", "how to read": "relative to: high Mg2+ state, higher = stronger signaling", "quantity": "fold induction", "value": 29.8}
